{"data": "Assay results gathered from unrelated publications", "note": "Every numbered part comes from another study and shows a few of its results, in no order."}
{"data": "Series 1", "target": "Histone acetyltransferase KAT6A, both winged helices, GST fusion (KAT6A, Homo sapiens, UniProt Q92794, residues 1-181)", "technique": "protein binding microarray", "form": "double-stranded DNA, one strand shown", "medium": "in vitro", "concentration": "not given", "notes": "8-mer, flanks averaged, mean of 2 arrays, mostly near background", "relative to": "not given", "reading": "higher = stronger binding", "Residues (chain)": "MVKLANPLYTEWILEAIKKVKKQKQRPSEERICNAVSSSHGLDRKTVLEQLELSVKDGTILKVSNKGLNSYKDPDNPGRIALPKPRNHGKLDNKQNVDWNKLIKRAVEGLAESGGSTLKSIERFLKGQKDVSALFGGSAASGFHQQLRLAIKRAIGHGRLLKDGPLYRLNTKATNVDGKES"}
{"Strand": "CGGAAATA", "E-score": 0.115}
{"Strand": "AGTCGTAT", "E-score": -0.0689}
{"Strand": "ACTCCTAC", "E-score": -0.183}
{"data": "Series 2", "target": "Interferon regulatory factor 5, full length, phosphomimetic (IRF5, Homo sapiens, UniProt Q13568-2, residues 1-514, S451D/S453D/S456D/S462D)", "technique": "protein-binding microarray", "form": "double-stranded DNA, one strand shown", "medium": "in vitro", "concentration": "940 nM top", "notes": "60-bp whole probe", "with": "salmon DNA 0.4 mg/ml", "relative to": "random background probes", "reading": "higher = stronger binding"}
{"Strand": "GCCTAGCACGAGGGTTTCCTTCTCCTGACGTGCTAGGTCTTGATTCGCTTGACGCTGCTG", "fitted relative affinity [z-score]": 1.34}
{"Strand": "GCCTAGCACTCATTTTTATCAATCATACTGTGCTAGGTCTTGATTCGCTTGACGCTGCTG", "fitted relative affinity [z-score]": 0.851}
{"Strand": "GCCTAGCACGACGGACTGGGGTATCGAGACGTGCTAGTCTTGATTCGCTTGACGCTGCTG", "fitted relative affinity [z-score]": 0.743}
{"data": "Series 3", "target": "POU, POU domain (Salpingoeca helianthica)", "technique": "Spec-seq", "form": "double-stranded DNA, one strand shown", "medium": "in vitro", "concentration": "not given", "notes": "whole probe, mean of replicates", "relative to": "not given", "reading": "lower = stronger binding", "Construct (chain)": "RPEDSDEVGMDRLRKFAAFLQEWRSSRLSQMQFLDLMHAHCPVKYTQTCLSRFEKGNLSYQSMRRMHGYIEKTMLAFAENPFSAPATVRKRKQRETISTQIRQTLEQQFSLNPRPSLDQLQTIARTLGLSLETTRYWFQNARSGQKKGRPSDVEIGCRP"}
{"Strand": "GAGTCGTCTCGTCAGCACACCCTAATCCGTAGAGCACTCAGGTC", "relative binding energy": "0.614 ln ratio"}
{"Strand": "GAGTCGTCTCGTCAGCACAGCTTAATCCGTAGAGCACTCAGGTC", "relative binding energy": "0.539 ln ratio"}
{"Strand": "GAGTCGTCTCGTCAGCACATGCTTACCCGTAGAGCACTCAGGTC", "relative binding energy": "1.19 ln ratio"}
{"data": "Other studies, line by line"}
{"Molecule": "PhoQ, residues 284 288 289 292 302 303 TNASYF", "target": "PhoP, residues 12 14 15 18 19 NIMAP (Escherichia coli, UniProt P23836)", "assay": "Sort-seq, measured: YFP reporter", "system": "E. coli", "conditions": "PhoQ-PhoP variant library, with: 10 µM Mg2+", "how to read": "relative to: high Mg2+ state, higher = stronger signaling", "measurement": "fold induction", "result": 1.12}
{"note": "Excerpt of the above (series 3):"}
{"Strand": "GAGTCGTCTCGTCAGCACACCCTAATCCGTAGAGCACTCAGGTC", "relative binding energy": "0.614 ln ratio"}
